Assay results gathered from unrelated publications.
Numbered parts are unrelated; each lists some results of a single study.

Block 1
SMILES: COc1ccc(-c2c(Nc3ccccn3)[nH]c3c(C4=CCCCC4)c(-c4ccccc4)nn3c2=O)cc1
Host: human
Sample: plasma
Route: oral
Measurement: AUC(tau) extrapolated share
400 mg QD: 0%
150 mg QD: 0%
200 mg QD: 0%

Block 2
Target: 5-hydroxytryptamine receptor 5A (HTR5A, Homo sapiens, UniProt P47898)
Sequence of UniProt P47898 (whole entry, looked up): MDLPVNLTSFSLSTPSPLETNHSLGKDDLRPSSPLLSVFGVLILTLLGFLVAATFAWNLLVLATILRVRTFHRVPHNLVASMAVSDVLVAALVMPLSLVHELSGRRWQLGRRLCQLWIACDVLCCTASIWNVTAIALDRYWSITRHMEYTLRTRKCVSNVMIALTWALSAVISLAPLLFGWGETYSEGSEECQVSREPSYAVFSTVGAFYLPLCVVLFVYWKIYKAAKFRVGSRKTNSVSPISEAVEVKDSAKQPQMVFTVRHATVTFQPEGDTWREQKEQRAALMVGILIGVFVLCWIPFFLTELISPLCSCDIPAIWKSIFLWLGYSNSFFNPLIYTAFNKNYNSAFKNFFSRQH
Observed: cell-free assay
Concentration: 10 µM
Measurement: inhibition
CCC(=NO)C(C)=Cc1ccc(F)c(C)c1: -3.24%
C[C@@]1(Cc2ccc(C#N)cc2)C(=O)N(c2cc(Cl)cc(Cl)c2)c2ncc(C(=O)NC3(c4nc(C5CCC5)no4)CC3)n21: 2.14%
C[C@H](c1ccc(F)cc1)N(Cc1cccc(C(=O)O)c1)C(=O)c1cnc2ccccc2c1: -1.89%
CN(C)[C@H]1CCN(c2cc(-c3ccccc3)nc3ccnn23)C1: 5.42%
Cc1noc([C@H]2C[C@@H](c3ccc(C(F)(F)F)cc3)CN(C(=O)N3CCS(=O)(=O)C3)C2)n1: -14.6%
CS(=O)(=O)N1CCCC(NC(=O)[C@H](CCC2CCCCC2)NC(=O)c2ccc(CNC(=O)c3cnc4ccccn34)cc2)C1 (some centres unmarked): 3.1%
Nc1nc(NCc2ccccc2)nc(-c2ccccc2CO)n1: 10.6%
NS(=O)(=O)c1cc(NC(=O)Cc2ccccc2)ccc1Oc1cccc(Cl)c1: 1.47%
CCOc1ccc(S(=O)(=O)Nc2ccc(Cl)cc2C#Cc2cnc(C(=O)O)cc2OC)c2ncccc12: -24.6%
Nc1cnc(N2CCc3cc(S(=O)(=O)Nc4c(F)cc(Cl)cc4F)cc(N4CCCC4=O)c32)nc1: -4.87%
O=C1c2ccc(Nc3ccc(F)cc3F)cc2CCc2ccc(OC[C@H](O)CO)cc21: 13.8%
Cc1c(NC(=O)c2cc(C(N)=O)nc3cc(F)ccc23)c(C(F)(F)F)nn1Cc1ccc(C#N)cc1: -2.35%
CCCOc1ccc([C@H]2[C@H](C(=O)O)[C@@H](c3ccc4c(c3)OCO4)CN2CC(=O)Nc2c(CC)cccc2CC)cc1: -0.22%
CCC(F)(F)c1cc(N2CCC(S(C)(=O)=O)CC2)nc2sc(C(N)=O)c(N)c12: 6.16%

Block 3
Target: Serine/threonine-protein kinase 26 (STK26, Homo sapiens, UniProt Q9P289)
Sequence of UniProt Q9P289 (whole entry, looked up): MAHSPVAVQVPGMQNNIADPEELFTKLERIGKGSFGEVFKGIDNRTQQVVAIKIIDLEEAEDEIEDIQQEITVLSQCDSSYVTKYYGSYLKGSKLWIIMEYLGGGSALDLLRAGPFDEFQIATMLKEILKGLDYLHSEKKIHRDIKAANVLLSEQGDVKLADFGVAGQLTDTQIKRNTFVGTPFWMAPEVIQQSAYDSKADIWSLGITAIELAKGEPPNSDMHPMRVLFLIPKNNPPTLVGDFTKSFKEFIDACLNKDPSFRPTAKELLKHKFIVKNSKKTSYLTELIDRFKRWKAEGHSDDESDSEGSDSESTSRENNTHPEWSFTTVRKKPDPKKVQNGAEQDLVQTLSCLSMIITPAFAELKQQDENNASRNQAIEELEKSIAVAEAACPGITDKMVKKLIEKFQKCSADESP
Observed: enzyme activity
Mode: inhibitor
Concentration: 0.5 µM
Relative to: control
Measurement: remaining activity
O=C1Cc2c([nH]c3ccc([N+](=O)[O-])cc23)-c2ccccc2N1: 78.6%
NC(=O)c1ccc(N(C(N)=O)c2c(F)cccc2F)nc1-c1ccc(F)cc1F: 117%
CC(=O)c1ccc(N2CCOCC2)cc1O: 99.5%
CCc1[nH]c(-c2ccc(OC)cc2)nc1-c1ccncc1: 106%
Cc1ccc(NC2=CC(=O)c3sc(C)nc3C2=O)cc1: 86.6%
Nc1ncnc2c1cnn2-c1ccccc1: 82.2%
N#CC(=C(N)Sc1ccc(N)cc1)c1ccccc1C(F)(F)F: 97.2%
CC#CC(=O)Nc1cc2c(Nc3ccc(F)c(Cl)c3)ncnc2cn1: 103%
Nc1nc(Nc2ccc(S(N)(=O)=O)cc2)nn1C(=O)c1c(F)cccc1F: 64.2%
COc1cc(Nc2c(C#N)cnc3cc(OCCCN4CCN(C)CC4)c(OC)cc23)c(Cl)cc1Cl: 5.9%
Fc1ccc(-c2nc3n(c2-c2ccncc2)CCS3)cc1: 109%
Oc1ccc(Nc2nc(-c3ccc(Cl)cc3)cs2)cc1: 105%
Nc1nccc(-c2c(-c3ccc(F)cc3)ncn2C2CCNCC2)n1: 98.4%
COc1ccc(S(=O)(=O)N(CCO)c2ccccc2CN(C)CC=Cc2ccc(Cl)cc2)cc1: 105%
O=C1NC(=O)C(c2c[nH]c3ccccc23)=C1c1c[nH]c2ccccc12: 59.2%
Cc1cncc2cccc(S(=O)(=O)N3CCCN(C(=O)CN)C[C@@H]3C)c12: 107%
CSc1nc(-c2ccnc(N[C@@H](C)c3ccccc3)c2)c(-c2ccc(F)cc2)[nH]1 (racemic): 101%
CCCC(=O)Oc1ccc2[nH]c(C(=O)c3cc4ccccc4[nH]3)cc2c1: 94.8%
Cc1cc(Nc2nc(-c3ccccc3)nc3ccccc23)n[nH]1: 91.2%
CC[n+]1c(/C=C/N(C)c2ccccc2)n(-c2ccccc2)c2ccc(-c3nc4ccccc4s3)cc21: 93.7%

Block 4
Organism: Sarcocystis neurona
Observed: parasite growth
Concentration: 10 µM
Time: 96 h
Notes: first screen
Measurement: inhibition
CN(C)CCOc1ccc(/C(=C(/CCCl)c2ccccc2)c2ccccc2)cc1: 1.1%
Cc1cnc(C(=O)NCCc2ccc(S(=O)(=O)NC(=O)NC3CCCCC3)cc2)cn1: -24.3%
CN(C)CC/C=C1/c2ccccc2COc2ccc(CC(=O)O)cc21: 11.8%
O=C1N[C@H](C(=O)O)CS1: -11.8%
CN1[C@@H]2CC[C@H]1C[C@@H](OC(=O)C(CO)c1ccccc1)C2 (some centres unmarked): -2.2%
CC(C)[C@H]1CC[C@H](C(=O)N[C@H](Cc2ccccc2)C(=O)O)CC1: -18.6%
CCCCNC(=O)NS(=O)(=O)c1ccc(C)cc1: -12.4%
Oc1ccc(/C=C/c2cc(O)cc(O)c2)cc1: -10.2%
Clc1ccc2c(c1)C(N1CCNCC1)=Nc1ccccc1O2: -1.2%
CC(=O)CC(c1ccccc1)c1c(O)c2ccccc2oc1=O (centres unmarked): -4.2%
CCOC(=O)[C@H](CCc1ccccc1)N[C@@H](C)C(=O)N1CCC[C@H]1C(=O)O: -7.3%
CC(C(=O)O)c1ccc(CC2CCCC2=O)cc1 (centres unmarked): -8.7%
CC(C(=O)O)c1ccc(-c2ccccc2)c(F)c1 (centres unmarked): 0.4%
C#C[C@]1(OC(C)=O)CC[C@H]2[C@@H]3CCC4=CC(=O)CC[C@@H]4[C@H]3CC[C@@]21C: -5.8%
C[C@]12CCC(=O)C=C1CC[C@@H]1[C@@H]2[C@@H](O)C[C@@]2(C)[C@H]1CC[C@]2(O)C(=O)CO: 16.8%
Cn1cc[nH]c1=S: -1.7%

Excerpt of the above (block 3):
COc1ccc(S(=O)(=O)N(CCO)c2ccccc2CN(C)CC=Cc2ccc(Cl)cc2)cc1: 105%
O=C1NC(=O)C(c2c[nH]c3ccccc23)=C1c1c[nH]c2ccccc12: 59.2%
Cc1cncc2cccc(S(=O)(=O)N3CCCN(C(=O)CN)C[C@@H]3C)c12: 107%
CSc1nc(-c2ccnc(N[C@@H](C)c3ccccc3)c2)c(-c2ccc(F)cc2)[nH]1 (racemic): 101%
CCCC(=O)Oc1ccc2[nH]c(C(=O)c3cc4ccccc4[nH]3)cc2c1: 94.8%
